Measurements gathered from unrelated publications.
Parts stem from different laboratories: compare values within a part only.

Amino acid sequences for entries named in this document (tags omitted).
UniProt Q00534, whole entry: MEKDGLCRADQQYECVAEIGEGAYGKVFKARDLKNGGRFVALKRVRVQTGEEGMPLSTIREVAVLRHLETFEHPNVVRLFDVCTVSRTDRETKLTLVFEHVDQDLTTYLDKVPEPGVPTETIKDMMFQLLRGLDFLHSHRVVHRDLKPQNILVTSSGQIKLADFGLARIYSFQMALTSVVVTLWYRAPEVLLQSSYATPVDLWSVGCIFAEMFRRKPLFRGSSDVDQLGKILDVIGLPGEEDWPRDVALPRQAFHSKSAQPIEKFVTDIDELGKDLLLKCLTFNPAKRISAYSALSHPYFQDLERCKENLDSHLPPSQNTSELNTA
UniProt P49840, whole entry: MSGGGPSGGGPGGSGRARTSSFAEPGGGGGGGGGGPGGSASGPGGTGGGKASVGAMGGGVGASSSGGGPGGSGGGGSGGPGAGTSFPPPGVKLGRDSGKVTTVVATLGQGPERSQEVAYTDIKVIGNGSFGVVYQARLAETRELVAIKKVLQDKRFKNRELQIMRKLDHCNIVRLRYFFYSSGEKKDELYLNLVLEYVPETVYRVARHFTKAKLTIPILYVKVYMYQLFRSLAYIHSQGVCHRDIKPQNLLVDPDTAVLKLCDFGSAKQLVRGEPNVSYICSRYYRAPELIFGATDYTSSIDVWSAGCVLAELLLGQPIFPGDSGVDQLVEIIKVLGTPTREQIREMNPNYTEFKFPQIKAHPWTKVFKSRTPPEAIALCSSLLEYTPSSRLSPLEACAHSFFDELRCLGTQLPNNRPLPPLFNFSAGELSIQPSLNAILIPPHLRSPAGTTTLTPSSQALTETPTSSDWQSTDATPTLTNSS
UniProt P15056, whole entry G596R: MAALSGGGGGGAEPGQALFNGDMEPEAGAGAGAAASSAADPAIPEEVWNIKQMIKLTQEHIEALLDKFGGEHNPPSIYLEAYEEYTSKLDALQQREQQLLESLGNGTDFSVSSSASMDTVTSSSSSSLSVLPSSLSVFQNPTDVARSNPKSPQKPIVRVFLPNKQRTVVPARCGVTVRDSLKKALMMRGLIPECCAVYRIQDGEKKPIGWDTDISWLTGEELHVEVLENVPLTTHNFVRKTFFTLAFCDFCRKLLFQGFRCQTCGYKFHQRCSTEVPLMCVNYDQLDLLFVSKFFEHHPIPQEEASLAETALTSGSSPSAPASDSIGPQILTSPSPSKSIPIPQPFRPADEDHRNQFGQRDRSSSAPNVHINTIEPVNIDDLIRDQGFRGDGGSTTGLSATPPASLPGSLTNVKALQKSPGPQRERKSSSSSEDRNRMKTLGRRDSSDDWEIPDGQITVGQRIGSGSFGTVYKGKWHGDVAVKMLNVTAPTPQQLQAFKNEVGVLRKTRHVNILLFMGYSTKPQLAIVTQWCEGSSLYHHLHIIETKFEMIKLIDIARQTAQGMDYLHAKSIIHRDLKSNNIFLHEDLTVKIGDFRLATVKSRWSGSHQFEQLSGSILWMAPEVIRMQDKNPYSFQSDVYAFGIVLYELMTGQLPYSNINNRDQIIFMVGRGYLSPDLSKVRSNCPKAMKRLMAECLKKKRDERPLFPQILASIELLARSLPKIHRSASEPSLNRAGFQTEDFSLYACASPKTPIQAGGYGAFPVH
UniProt Q13237, whole entry: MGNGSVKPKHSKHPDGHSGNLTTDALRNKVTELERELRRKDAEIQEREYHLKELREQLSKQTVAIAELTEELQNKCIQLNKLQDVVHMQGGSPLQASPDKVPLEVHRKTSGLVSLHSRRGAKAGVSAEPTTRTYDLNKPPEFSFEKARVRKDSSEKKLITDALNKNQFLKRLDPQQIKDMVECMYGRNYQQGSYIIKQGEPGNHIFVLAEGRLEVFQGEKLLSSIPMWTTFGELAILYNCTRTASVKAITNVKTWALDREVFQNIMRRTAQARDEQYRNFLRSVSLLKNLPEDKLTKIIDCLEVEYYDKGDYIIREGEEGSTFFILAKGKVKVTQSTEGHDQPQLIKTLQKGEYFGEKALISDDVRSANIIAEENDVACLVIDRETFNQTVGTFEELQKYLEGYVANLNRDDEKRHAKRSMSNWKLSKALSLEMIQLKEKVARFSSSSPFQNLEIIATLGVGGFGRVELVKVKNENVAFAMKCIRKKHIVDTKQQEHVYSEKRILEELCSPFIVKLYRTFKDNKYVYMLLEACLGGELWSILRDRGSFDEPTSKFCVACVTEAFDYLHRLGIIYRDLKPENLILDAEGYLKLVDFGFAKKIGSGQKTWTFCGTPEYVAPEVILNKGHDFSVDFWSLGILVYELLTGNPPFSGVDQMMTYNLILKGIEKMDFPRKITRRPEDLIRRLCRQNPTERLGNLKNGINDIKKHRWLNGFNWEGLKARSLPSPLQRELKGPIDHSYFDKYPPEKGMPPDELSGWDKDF
UniProt P04150, whole entry: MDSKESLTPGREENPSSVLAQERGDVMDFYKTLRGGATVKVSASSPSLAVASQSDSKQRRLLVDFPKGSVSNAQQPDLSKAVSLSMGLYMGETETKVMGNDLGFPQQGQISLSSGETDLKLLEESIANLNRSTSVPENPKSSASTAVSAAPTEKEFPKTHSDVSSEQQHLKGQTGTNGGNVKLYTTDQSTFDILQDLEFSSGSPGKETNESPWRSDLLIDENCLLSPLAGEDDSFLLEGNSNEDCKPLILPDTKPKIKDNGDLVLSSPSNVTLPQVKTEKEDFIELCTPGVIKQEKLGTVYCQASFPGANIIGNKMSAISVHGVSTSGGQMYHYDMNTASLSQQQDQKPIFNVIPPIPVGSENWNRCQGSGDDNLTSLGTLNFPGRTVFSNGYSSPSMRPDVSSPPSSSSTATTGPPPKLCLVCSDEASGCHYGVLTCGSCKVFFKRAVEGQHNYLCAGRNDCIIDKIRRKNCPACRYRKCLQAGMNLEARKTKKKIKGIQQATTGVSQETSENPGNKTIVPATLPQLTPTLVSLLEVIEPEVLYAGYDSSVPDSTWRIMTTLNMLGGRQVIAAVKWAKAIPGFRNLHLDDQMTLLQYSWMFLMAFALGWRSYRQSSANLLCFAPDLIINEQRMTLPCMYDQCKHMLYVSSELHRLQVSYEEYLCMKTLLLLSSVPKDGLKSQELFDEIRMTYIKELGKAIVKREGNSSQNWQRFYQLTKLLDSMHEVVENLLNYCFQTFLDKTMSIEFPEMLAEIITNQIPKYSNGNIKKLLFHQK
UniProt P26045, whole entry: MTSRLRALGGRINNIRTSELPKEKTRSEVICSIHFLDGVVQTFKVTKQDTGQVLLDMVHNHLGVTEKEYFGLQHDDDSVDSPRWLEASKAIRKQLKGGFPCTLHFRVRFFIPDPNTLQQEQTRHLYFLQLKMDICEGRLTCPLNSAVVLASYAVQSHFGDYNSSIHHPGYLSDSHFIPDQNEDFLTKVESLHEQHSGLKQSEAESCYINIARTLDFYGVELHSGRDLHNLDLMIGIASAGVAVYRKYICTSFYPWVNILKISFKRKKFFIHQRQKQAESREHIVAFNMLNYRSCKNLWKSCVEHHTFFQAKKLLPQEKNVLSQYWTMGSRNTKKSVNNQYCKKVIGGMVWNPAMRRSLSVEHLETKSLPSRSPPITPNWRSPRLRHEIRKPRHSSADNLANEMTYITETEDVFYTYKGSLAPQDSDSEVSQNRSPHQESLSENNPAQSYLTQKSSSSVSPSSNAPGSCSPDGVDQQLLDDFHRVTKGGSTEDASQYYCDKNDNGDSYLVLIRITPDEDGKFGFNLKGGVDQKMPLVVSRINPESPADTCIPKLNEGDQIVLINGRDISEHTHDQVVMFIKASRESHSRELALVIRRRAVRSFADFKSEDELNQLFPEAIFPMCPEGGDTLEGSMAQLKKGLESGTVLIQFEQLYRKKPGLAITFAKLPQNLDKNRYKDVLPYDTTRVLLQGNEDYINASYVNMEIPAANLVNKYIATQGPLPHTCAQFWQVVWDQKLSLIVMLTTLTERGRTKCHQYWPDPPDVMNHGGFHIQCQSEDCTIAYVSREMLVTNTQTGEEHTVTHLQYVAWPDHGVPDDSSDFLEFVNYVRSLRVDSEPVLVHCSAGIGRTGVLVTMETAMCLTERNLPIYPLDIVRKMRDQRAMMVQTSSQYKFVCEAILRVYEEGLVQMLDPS
UniProt P17948, whole entry, looked up: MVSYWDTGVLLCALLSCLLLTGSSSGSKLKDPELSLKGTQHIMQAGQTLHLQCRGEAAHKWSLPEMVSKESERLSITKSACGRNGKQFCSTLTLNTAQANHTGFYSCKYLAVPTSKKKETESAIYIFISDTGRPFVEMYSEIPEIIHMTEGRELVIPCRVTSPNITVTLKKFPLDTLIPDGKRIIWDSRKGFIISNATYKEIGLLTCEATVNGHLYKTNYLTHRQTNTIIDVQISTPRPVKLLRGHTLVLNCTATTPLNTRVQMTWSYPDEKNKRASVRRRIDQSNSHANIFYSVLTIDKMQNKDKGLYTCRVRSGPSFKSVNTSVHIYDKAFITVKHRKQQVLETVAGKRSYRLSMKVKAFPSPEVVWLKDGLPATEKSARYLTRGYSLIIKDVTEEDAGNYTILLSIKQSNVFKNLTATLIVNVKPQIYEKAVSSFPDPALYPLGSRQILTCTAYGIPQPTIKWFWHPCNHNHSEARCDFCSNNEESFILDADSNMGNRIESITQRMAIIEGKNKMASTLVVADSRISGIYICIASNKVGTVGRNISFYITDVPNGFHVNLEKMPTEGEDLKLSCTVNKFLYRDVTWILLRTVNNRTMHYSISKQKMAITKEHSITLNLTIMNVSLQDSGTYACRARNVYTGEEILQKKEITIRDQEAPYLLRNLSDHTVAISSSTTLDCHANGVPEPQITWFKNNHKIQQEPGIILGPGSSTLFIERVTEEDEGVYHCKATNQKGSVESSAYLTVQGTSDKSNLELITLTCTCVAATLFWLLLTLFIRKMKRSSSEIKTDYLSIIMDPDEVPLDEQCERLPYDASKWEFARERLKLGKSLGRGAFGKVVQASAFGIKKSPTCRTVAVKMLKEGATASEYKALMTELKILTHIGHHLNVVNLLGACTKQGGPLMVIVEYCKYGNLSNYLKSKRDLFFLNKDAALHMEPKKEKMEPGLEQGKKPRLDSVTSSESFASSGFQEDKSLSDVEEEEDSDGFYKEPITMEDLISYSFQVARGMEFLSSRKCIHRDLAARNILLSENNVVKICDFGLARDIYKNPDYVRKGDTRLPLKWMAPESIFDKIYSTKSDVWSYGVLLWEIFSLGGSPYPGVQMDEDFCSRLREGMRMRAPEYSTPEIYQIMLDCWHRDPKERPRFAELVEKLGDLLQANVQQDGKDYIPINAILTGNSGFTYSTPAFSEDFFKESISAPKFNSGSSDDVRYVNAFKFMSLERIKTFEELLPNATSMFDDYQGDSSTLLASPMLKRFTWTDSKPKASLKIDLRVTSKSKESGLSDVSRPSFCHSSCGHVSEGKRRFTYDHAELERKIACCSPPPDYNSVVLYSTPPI

Study 1
SMILES: CCN1CCN(Cc2ccc(NC(=O)c3ccc(C)c(/C=C/c4cnc5[nH]ccc5c4OC)c3)cc2C(F)(F)F)CC1
Mode: inhibitor
Technique: cell-based kinome screen
Concentration: 5 µM
The “log2 fold change” was 0.364 (Cyclin-dependent kinase 6 (CDK6, Homo sapiens, UniProt Q00534); baseline: vehicle).
Glycogen synthase kinase-3 alpha (GSK3A, Homo sapiens, UniProt P49840); human cells; baseline: vehicle — “log2 fold change”: 0.546.
It gave 0.274 for “log2 fold change” (Serine/threonine-protein kinase B-raf (BRAF, Homo sapiens, UniProt P15056, G596R); baseline: vehicle control).
For cGMP-dependent protein kinase 2 (PRKG2, Homo sapiens, UniProt Q13237); kinase activity; baseline: vehicle: “log2 fold change” read -0.019.

Single results of other studies
NR3C1: Glucocorticoid receptor (NR3C1, Homo sapiens, UniProt P04150)
`C[C@@]12CCC(=O)C=C1CC[C@H]1C2[C@@H](O)C[C@]2(C)[C@@H]1CC[C@@]2(O)C(=O)COC(=O)C1CCCC1` (some centres unmarked) gave an EC50 of 610 nM (NR3C1; nuclear translocation, agonist, enzyme fragment complementation).
Under inhibition, `COc1cc(CC(=O)NCC(NC(=O)C(CCCNC(=O)c2cccc(I)c2)NC(=O)C(Cc2ccc(C(F)(F)P(=O)(O)O)cc2)NC(=O)c2ccc(C)c(Br)c2)C(N)=O)ccc1O` (centres unmarked) is recorded as “no inhibition” (Tyrosine-protein phosphatase non-receptor type 3 (PTPN3, Homo sapiens, UniProt P26045); enzyme activity; 10 µM).
The EC50 of `C[C@@]12CC[C@@H]3[C@H](CCC4=CC(=O)CC[C@]43C)[C@@H]1CC[C@@H]2C(=O)Cn1cnc2c(=S)nc[nH]c21` is reported as > 9000 nM (NR3C1; nuclear translocation, agonist, enzyme fragment complementation).
The inhibition of `CC#C/C(=N\OC[C@H]1COCCN1)c1ccc2ncnc(Nc3ccc(OCc4cccc(F)c4)c(Cl)c3)c2c1` is reported as 4.1% (Vascular endothelial growth factor receptor 1 (FLT1, Homo sapiens, UniProt P17948); kinase activity; 10 µM).
